Measurements of several laboratories.
Protocols differ between the studies behind these lines. Several values in a cell are separate wells, animals, samples, runs or records. ± marks the error that the study gave.

| Compound | assay | test system | conditions | scale | endpoint | result |
| --- | --- | --- | --- | --- | --- | --- |
| O=C(O)CCC(=O)O.[2H]C([2H])([2H])Oc1cc(C)c2[nH]ccc2c1CN1CC[C@@H](C2CC2)C[C@H]1c1ccc(C(=O)O)cc1 | LC-MS/MS, median | human, plasma | 100 mg, single dose, fasting |  | Tmax | 4 h |
| O=C1CC[C@H](N2Cc3cc(N4CCN(CC5CCN(c6ccc([C@@H]7c8ccc(O)cc8CC[C@@H]7c7ccccc7)cc6)CC5)CC4)ccc3C2=O)C(=O)N1 |  | human | oral, 200 mg, added: dabigatran etexilate 75 mg |  | participants with TRAE diarrhoea | 0% |
| CCc1cc(OC)c2nccc(N3CCc4c(cc(Cn5ccnc5)cc4-c4cn(C)nc4C(F)(F)F)C3=O)c2c1 |  | CD-1 mouse, male, plasma | oral, 150 mg/kg |  | AUC extrapolated | 0.8% |
| O=C(NCc1cc[nH]n1)c1ccc([C@H]2[C@@H](F)[C@@H](F)C[C@@H](F)[C@H]2F)cc1 | liver microsome stability | rat liver microsomes | 1 µM |  | hepatic clearance | 14 mL/min/kg |
| N#Cc1ccc2c(c1)[C@H]1CCCN(C(=O)c3ccc4[nH]cnc4c3)[C@H]1C2 |  | human, male | 10 mg, day 7 |  | androstenedione level | 6.9 nmol/L |
| CC(C)(C(=O)N1CCOc2c(C#N)cncc2C1)C(F)F | measured: skin disorders | healthy humans, both sexes | oral, 30 mg single dose |  | share of subjects with TEAE | 16.7% |
| C[C@@H]1CCO[C@H]2Cn3cc(C(=O)NCc4ccc(F)cc4F)c(=O)c(O)c3C(=O)N12 |  | human paediatric patients, weight 6 to under sample A kg, plasma | oral, 8 mg granules, 24 h, steady state, geometric mean, population PK post-hoc, N 2 |  | trough concentration (C24) | 452 ng/mL |
| COc1cccc(-c2n[nH]c(SCc3ccccn3)n2)c1OC |  | Sprague-Dawley rats, both sexes | oral dietary, 100 mg/kg/day, day 7, 1 h |  | plasma concentration | 3060 ng/mL |
| CC(C)(c1ccc(O)cc1)c1ccc(O)cc1 |  | whole cow milk | 20 nM nominal |  | dose fraction in skim milk | 56.9% |
| O=C(O)c1cccc(C(=O)O)c1 |  | betaine/propylene glycol DES-water | DES mass fraction 0.60 |  | apparent dissolution enthalpy | 2.54 kcal/mol |
| C=CC(=O)N1CCC(c2ccc(C(N)=O)c(-c3ccc(Oc4ccccc4)cc3)n2)CC1 | CTCAE 4.03 | patients with relapsed/refractory MCL | oral, 150 mg once daily |  | incidence of grade ≥3 TEAEs | 12.5% |
| NC(=O)CCNC(=O)c1ccc([C@H]2[C@@H](F)[C@@H](F)C[C@@H](F)[C@H]2F)cc1 | liver microsome stability | cynomolgus liver microsomes | 1 µM |  | hepatic clearance | 4.9 mL/min/kg |
| Oc1ccc(/C=C/c2cc(O)cc(O)c2)cc1 |  | rat, azoxymethane-injected, blood at sacrifice | 100 mg/kg |  | inorganic phosphorus | 5.7 mg/dL and 4.5 mg/dL and 6.1 mg/dL |
| Cc1nc2ccc(F)cc2n1-c1nc(N)c(F)c(Nc2ccc(C(F)(F)F)cc2)n1 |  | human patients, plasma | oral, 200 mg twice weekly, cycles 1 and 2 pooled |  | dose-normalized AUC(0-inf) | 82.6 ng·h/mL/mg |
| C=CCn1c(=O)c2cnc(Nc3ccc(N4CCN(C)CC4)cc3)nc2n1-c1cccc(C(C)(C)O)n1 |  | human patients | oral, 250 mg once daily, day 17, cycle 1, added: durvalumab 1500 mg iv |  | AUC(0-10 h) | 6.39 µM·h |
| Cc1ccc(Sc2ccccc2N2CCNCC2)c(C)c1 | measured: Headache | healthy adult men | oral, 5 mg daily, 12 days |  | participants with TEAE | 0% |
| Cn1ncnc1[C@H]1c2n[nH]c(=O)c3cc(F)cc(c23)N[C@@H]1c1ccc(F)cc1 |  | human patients, plasma | oral, 400 µg/m2, median |  | AUC(0-τ) | 140 ng·h/mL |
| Cc1cn(C(=O)c2c(-c3c(Cl)cc(Cl)cc3Cl)noc2C(C)(C)F)c2cccc(/C=C/C(=O)O)c12 |  | human patients | 250 mg bid, cycle 8 day 1 |  | AUC(0-8h) | 159000 ng·h/mL |
| CC(C)c1nc(N(C)S(C)(=O)=O)nc(-c2ccc(F)cc2)c1/C=C/[C@@H](O)C[C@@H](O)CC(=O)O | measured: infections and infestations | healthy men | oral, dose not given, 8 days, treatment-emergent, crossover trial |  | subjects with adverse event | 4.5% |

| Compound | assay | test system | conditions | scale | endpoint | result |
| --- | --- | --- | --- | --- | --- | --- |
| CN(C(=O)n1cnc(-c2cccnc2)c1)[C@H]1CC[C@H](O)CC1 |  | rat, hippocampus | oral, 10 mg/kg single dose, 24 h |  | tissue concentration | 15.8 ± 0.7 ng/g |
| CNCc1ccc(-c2cc(-c3nc(-c4ccc(S(=O)(=O)C(C)C)cc4)cnc3N)on2)cc1 |  | female BALB/c mice | single dose, dose not given, 48 h, added: total body irradiation 6 Gy |  | spleen weight relative to body weight | 0.202% |
| Cc1nc(-c2ccc(OCC(C)C)c(C#N)c2)sc1C(=O)O |  | KM mouse, chronic hyperuricaemia model | dose not given, day 5 |  | body weight | 29.2 g and 26 g and 30.8 g and 28.2 g and 31.1 g and 30.5 g |
| COc1ccc([C@@H](O)c2cc(-c3ncnc4cc(N5CCOCC5)ccc34)c(F)cc2Cl)nn1 |  | locally advanced rectal cancer | all dose levels overall, added: capecitabine and radiotherapy |  | drug-related gastrointestinal disorders | 79% |
| CCn1ncc2c1-c1cnc(N)c(c1)O[C@H](C)c1cc(F)ccc1-c1nn(C)nc1C2 |  | female athymic nude mice, sample B PDX | oral, 0.2 mg/kg twice daily for 5.5 days, 1 h |  | unbound plasma concentration | 23 ± 0.3 nM |
| CNCc1ccc(-c2[nH]c3cc(F)cc4c3c2CCNC4=O)cc1 |  | human patients | oral, 840 mg twice daily, all grades |  | dysgeusia incidence | 66.7% |
| CN1C(=O)[C@@H](NC(=O)c2nnc(Cc3ccccc3)[nH]2)COc2cccnc21 | phase I multiple ascending dose | human, male and female | oral, 200 mg, 14 days |  | participants with any AE of special interest | 12.5% |
| CCN1/C(=C/C(C)=O)Sc2ccc(F)cc21 |  | cynomolgus monkey | oral, 100 mg/kg, 2 h post-dose | baseline: pre-dose | systolic blood pressure change | 96.5 ± 3.8% |
| Cc1ccc(CNC(=O)c2cc(/C=C/C(=O)O)cc(-c3ccc4ncnn4c3)c2)cc1 |  | mouse, liver microsomes | 1 µg/mL, 60 min, 0.5 mg/mL protein, added: NADPH |  | metabolic stability | stable |
| C=CC(=O)NC1CCN(c2ncc3ncnc(Nc4ccc(Oc5ccc6c(c5)ncn6C)c(C)c4)c3n2)CC1 |  | human, male, plasma | oral, 30 mg, fasted, adjusted geometric mean |  | AUC(0-tz) | 5.63 µM·h |
| COCCN(C)C(=O)c1ccc([C@H]2[C@@H](F)[C@@H](F)C[C@@H](F)[C@H]2F)cc1 | hepatocyte stability | cryopreserved human hepatocytes | 1 µM |  | hepatic clearance | 6.5 mL/min/kg |
| CCc1nc(C(N)=O)c(Nc2ccc(N3CCC(N4CCN(C)CC4)CC3)c(OC)c2)nc1NC1CCOCC1 |  | Japanese patients, plasma | oral, 200 mg, cycle 1 day 28, multiple doses, mean |  | Cmax | 1020 ng/mL |
| [18F]c1ccc(-c2ccc3c(c2)[nH]c2ccncc23)cn1 | microPET/CT imaging | B6SJL mouse, normal, brain | intravenous, 5 min |  | SUV | 1.47 ± 0.164 |
| Cc1cc(NC2CCN(C(=O)OC3CCN(C(=O)/C=C/CN(C)C)C3)CC2)n2ncc(C(C)C)c2n1 (stereo not drawn) | Phase I dose escalation CTCAE v4.0, measured: dermatitis acneiform | patients with advanced solid tumours | dose not given, Total dosing any grade |  | patients with adverse event | 9% |
| CC[C@@H]1CN(C(=O)NCC(F)(F)F)C[C@@H]1c1cnc2cnc3[nH]ccc3n12 |  | healthy subjects, plasma | oral, extended-release formulation, population PK model | baseline: ER over IR formulation | relative bioavailability | 74.2% |
| NC(=S)NN=Cc1ncccc1N | LC-MS/MS | human, plasma | oral, geometric mean |  | Cmax/dose | 4.14 µg/L/mg |
| C[C@@H](N)COc1ccc(-c2cnc3ccc(N[C@H](C)c4cccc(F)c4)nn23)cc1 |  | female Balb/c nude mouse | 100 mg/kg once daily, 12 h (tau/2), steady state |  | unbound plasma concentration | 236 ± 22 nM |
| O=C(Cc1cccnc1)Nc1ccc(C2CCCCC2)cc1 |  | dog liver microsomes | 1 µM |  | hepatic clearance | 25 mL/min/kg |
| COc1ccnc(C(N)=O)c1O | soil adsorption | tested soils | geometric mean |  | KFoc | 669 mL/g |

| Compound | assay | test system | conditions | scale | endpoint | result |
| --- | --- | --- | --- | --- | --- | --- |
| CC(C)C[C@@H]1NC(=O)CN(C)C(=O)[C@H](Cc2ccccc2)NCc2cc(c[nH]2)CNC1=O | PAMPA | 2% lecithin in dodecane | 100 µM, 17 h, pH 6.4, 37 °C |  | -log Pe | 6.76 + 0.17 |
| CCN1CCN(Cc2ccc(NC(=O)c3ccc(C)c(NC(=O)c4cncc(-c5cccs5)c4)c3)cc2C(F)(F)F)CC1 | LC-MS/MS | C57BL/6 mouse, plasma | intraperitoneal, 30 mg/kg single dose, 0.5 h |  | mean plasma concentration | 716 ng/mL |
| O=C(Cc1cccnc1)Nc1ccc([C@H]2[C@@H](F)[C@@H](F)C[C@@H](F)[C@H]2F)cc1 |  | cynomolgus liver microsomes | 1 µM |  | hepatic clearance | 4.9 mL/min/kg |
| O=C(COc1ccc(Cl)cc1)NC12CC(c3nnc([C@H]4C[C@@H](OC(F)(F)F)C4)o3)(C1)C2 | measured: Headache | healthy humans, both sexes | oral, 400 mg, single ascending dose | baseline: subjects | treatment-emergent adverse events | 33.3% |
| CNC(=O)c1ccc(-c2cnc3ncc(Cc4ccc5ncccc5c4)n3n2)cc1F | measured: Headache | cancer patients | oral, dose not given, dose escalation, grade 3-4 |  | patients with adverse event | 0% |
| Cn1cc(Nc2nccc(-c3ccc4c(c3)CN(C3COC3)CC[C@H]4NC(=O)c3cn(C(C)(C)C)nn3)n2)cn1 | measured: Plasmablasts count | human, clinical trial, whole blood | 50 mg twice daily, follow-up |  | percent change from baseline | 20.9% |
| O=C(c1ccc([C@H]2[C@@H](F)[C@@H](F)C[C@@H](F)[C@H]2F)cc1)N1CC(O)C1 | liver microsome stability | rat liver microsomes | 1 µM |  | hepatic clearance | 6.1 mL/min/kg |
| CNC(=O)c1ccc(-c2cnc3ncc(Cc4ccc5ncccc5c4)n3n2)cc1F |  | Japanese patients | oral, 400 mg, grade 3/4 |  | Cellulitis dose reduction/interruption | 1% |
| CCOc1c([C@H](C)n2nc(C)c3c(N)ncnc32)cc(Cl)c(F)c1[C@@H]1CNC(=O)C1 | measured: QRS ≤100 ms | previously treated B-cell malignancy | oral, 5 mg once daily, baseline below thresholds |  | ECG observations | 100% |
| C[C@@H](N)C1CCN(S(=O)(=O)c2cccc3cnccc23)CC1 |  | healthy volunteers | 150 mg, fasted |  | participants with serious TEAEs | 0% |
| COc1ccc2c(=O)n(C)c(-c3ccccc3)nc2c1 |  | Sprague-Dawley rat, male, brain | oral, 30 mg/kg, 2 h | baseline: brain over plasma | tissue/plasma ratio | 0.7 |
| O=C(Nc1nc2cccc(-c3ccc(CN4CCS(=O)(=O)CC4)cc3)n2n1)C1CC1 | measured: pain in extremity | human rheumatoid arthritis patients | oral, 30 mg once daily, 4 weeks, regardless of relatedness |  | treatment-emergent adverse events | 0% |
| COc1cc(C(=O)N2CCC3(CC2)CC(=O)c2c(cnn2C(C)C)C3)cc(-c2ccc(C(=O)O)cc2)n1 | measured: HDL cholesterol | human, fasting serum | 10 mg every 12 h, day 13, adjusted geometric mean | baseline: baseline | percentage change from baseline | -3.1% |
| O=C(Nc1ccc(C2CCCCC2)cc1)[C@H]1CC1(F)F | liver microsome stability | dog liver microsomes | 1 µM |  | hepatic clearance | 26 mL/min/kg |
| O=C(Nc1cnccc1Cl)N1CCN(Cc2ccc3c(c2)OC(F)(F)O3)CC1 | multiple ascending dose | young men | 10 mg, treatment-emergent adverse events |  | hepatic enzyme increased | 0% |
| CN(CCC#N)C(=O)c1ccc(C2CCCCC2)cc1 | hepatocyte stability | cryopreserved mouse hepatocytes | 1 µM |  | hepatic clearance | 79 mL/min/kg |
| Cc1ccc(OC2CCN(c3ncnc4ccc(F)cc34)CC2)cn1 |  | rat liver microsomes |  |  | intrinsic clearance (scaled) | 1430 mL/min/kg |
| COc1ccnc(C(=O)N[C@H]2COC(=O)[C@H](Cc3ccccc3)[C@@H](O)[C@H](C)OC2=O)c1O | soil adsorption | soil | pH 6.9, organic carbon 0.8 % |  | KFoc | 2870 mL/g |
| NCc1ccc(-c2nn(Cc3ccncc3)c3ccccc23)o1 |  | male CD1 mouse, plasma | intravenous, 5 mg/kg |  | clearance | 78.9 mL/min/kg |

Some of these lines once more:
| Compound | assay | test system | conditions | scale | endpoint | result |
| --- | --- | --- | --- | --- | --- | --- |
| CNC(=O)c1ccc(-c2cnc3ncc(Cc4ccc5ncccc5c4)n3n2)cc1F |  | Japanese patients | oral, 400 mg, grade 3/4 |  | Cellulitis dose reduction/interruption | 1% |
| NC(=O)CCNC(=O)c1ccc([C@H]2[C@@H](F)[C@@H](F)C[C@@H](F)[C@H]2F)cc1 | liver microsome stability | cynomolgus liver microsomes | 1 µM |  | hepatic clearance | 4.9 mL/min/kg |
| COCCN(C)C(=O)c1ccc([C@H]2[C@@H](F)[C@@H](F)C[C@@H](F)[C@H]2F)cc1 | hepatocyte stability | cryopreserved human hepatocytes | 1 µM |  | hepatic clearance | 6.5 mL/min/kg |
| C=CC(=O)N1CCC(c2ccc(C(N)=O)c(-c3ccc(Oc4ccccc4)cc3)n2)CC1 | CTCAE 4.03 | patients with relapsed/refractory MCL | oral, 150 mg once daily |  | incidence of grade ≥3 TEAEs | 12.5% |
| C[C@@H](N)COc1ccc(-c2cnc3ccc(N[C@H](C)c4cccc(F)c4)nn23)cc1 |  | female Balb/c nude mouse | 100 mg/kg once daily, 12 h (tau/2), steady state |  | unbound plasma concentration | 236 ± 22 nM |
| C[C@@H](N)C1CCN(S(=O)(=O)c2cccc3cnccc23)CC1 |  | healthy volunteers | 150 mg, fasted |  | participants with serious TEAEs | 0% |
